{"data": "Measurements of several laboratories", "note": "Numbered parts are unrelated; each lists some results of a single study."}
{"data": "Block 1", "host": "mouse", "matrix": "microsomes or S9", "concentration": "2 µM", "time": "0.5 h"}
{"SMILES": "COCCN(Cc1ccc(C)c(Br)c1)S(=O)(=O)c1ccc2[nH]c(=O)ccc2c1", "remaining compound [%]": 0.213}
{"SMILES": "Cc1cc(NC(=O)c2cc(C(=O)Nc3cc(C)n(C(C)C)n3)n(C)n2)nn1C(C)C", "remaining compound [%]": "> 100"}
{"SMILES": "COc1ccccc1CNC(=O)C1(C)Cc2ccccc2C(=O)N1c1ccc(Cl)cc1 (stereo not shown)", "remaining compound [%]": 0.345}
{"SMILES": "Cc1noc(C)c1Cc1c(C(=O)N2CCC(n3c(C)cnc3C3CCC3)C2)noc1C (stereo not shown)", "remaining compound [%]": 1.86}
{"data": "Block 2", "cell line": "sample D normal colon organoid", "method": "CellTiter-Glo", "concentration": "1 µM", "setting": "mean of replicates", "relative to": "DMSO"}
{"SMILES": "CN(C)CC#Cc1ccc(OCCCc2sc(N3CCc4cccc(C(=O)Nc5nc6ccccc6s5)c4C3)nc2C(=O)O)c(F)c1", "viability": "82.2%"}
{"SMILES": "CCOCCn1cc(C(=O)Nc2ccc(-n3nc(-c4cccnc4)cc3C(F)(F)F)cn2)ccc1=O", "viability": "100%"}
{"SMILES": "O=C(O)c1cc(-c2ccc(C3CCNCC3)cc2)c2ccc(-c3ccc(C(F)(F)F)cc3)cc2c1", "viability": "120%"}
{"SMILES": "O=C(O)[C@@H]1[C@@H](Cn2nnc3ccccc3c2=O)CC[C@H]1C(=O)c1ccc(OCCC2CCOCC2)cc1", "viability": "127%"}
{"data": "Block 3", "cell line": "HaCaT", "concentration": "100 µM", "time": "60 h"}
{"SMILES": "CN1C(C)(C)CCCC1(C)C", "viability [%]": 124}
{"SMILES": "COc1ccc(C(Cl)=C(c2ccc(OC)cc2)c2ccc(OC)cc2)cc1", "viability [%]": 115}
{"SMILES": "NC[C@H]1O[C@H](O[C@H]2[C@H](O)[C@@H](O[C@H]3O[C@H](CO)[C@@H](O)[C@H](N)[C@H]3O)[C@H](N)C[C@@H]2N)[C@H](N)C[C@@H]1O", "viability [%]": 135}
{"SMILES": "O=C(O)c1cn(-c2ccc(F)cc2)c2cc(N3CCNCC3)c(F)cc2c1=O", "viability [%]": 152}
{"SMILES": "COCCCN1CCC(NC(=O)c2cc(Cl)c(N)c3c2OCC3)CC1", "viability [%]": 113}
{"data": "Block 4", "target": "Cyclin-dependent kinase 4, with cyclin D3 (CDK4, Homo sapiens, UniProt P11802)", "read-out": "enzyme activity", "action": "inhibitor", "concentration": "0.5 µM", "relative to": "control", "chain of UniProt P11802 (whole entry, looked up)": "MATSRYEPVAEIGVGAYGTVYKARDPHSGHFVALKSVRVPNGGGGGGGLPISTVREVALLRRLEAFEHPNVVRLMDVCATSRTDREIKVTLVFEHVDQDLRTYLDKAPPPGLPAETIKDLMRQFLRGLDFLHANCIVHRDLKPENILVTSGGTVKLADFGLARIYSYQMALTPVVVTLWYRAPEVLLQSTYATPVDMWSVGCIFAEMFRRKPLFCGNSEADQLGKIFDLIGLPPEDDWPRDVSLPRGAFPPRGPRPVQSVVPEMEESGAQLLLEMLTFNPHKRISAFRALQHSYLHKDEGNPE"}
{"Compound": "COc1cc2nccc(Oc3ccc(NC(=S)NC(=O)c4ccccc4C)cc3)c2cc1OC", "remaining activity [%]": 93.4}
{"Compound": "CO[C@H]1C[C@@H]2CC[C@@H](C)[C@@](O)(O2)C(=O)C(=O)N2CCCC[C@H]2C(=O)O[C@H]([C@H](C)C[C@@H]2CC[C@@H](O)[C@H](OC)C2)CC(=O)[C@H](C)/C=C(\\C)[C@@H](O)[C@@H](OC)C(=O)[C@H](C)C[C@H](C)/C=C/C=C/C=C/1C", "remaining activity [%]": 104}
{"Compound": "Nc1ncnc2n[nH]c(Nc3ccc(F)cc3)c12", "remaining activity [%]": 111}
{"Compound": "Nc1[nH]nc2nc3ccccc3nc12", "remaining activity [%]": 94.8}
{"Compound": "Cn1c2ccccc2c2c3c(c4c5ccccc5n(CCC#N)c4c21)CNC3=O", "remaining activity [%]": 44.5}
{"Compound": "CN(C)c1ccc(C=C2C(=O)Nc3ccccc32)cc1", "remaining activity [%]": 98.9}
{"Compound": "NCCNc1ncc(C(N)=O)c(Nc2cccc(C(F)(F)F)c2)n1", "remaining activity [%]": 94.8}
{"Compound": "CCOC(=O)c1c(C)[nH]c(/C=C2\\C(=O)Nc3ccccc32)c1C", "remaining activity [%]": 106}
{"Compound": "Cc1ccc(NC(=O)c2ccc(CN3CCN(C)CC3)cc2)cc1Nc1nc(-c2cccnc2)cs1", "remaining activity [%]": 115}
{"Compound": "Cc1cccc(-c2[nH]c(C(C)(C)C)nc2-c2ccc3c(c2)OCO3)n1", "remaining activity [%]": 102}
{"Compound": "C#Cc1cccc(Nc2ncnc3cc(OCCOC)c(OCCOC)cc23)c1", "remaining activity [%]": 103}
{"Compound": "Oc1ccc(-c2nc(-c3ccncc3)c(-c3ccc(F)cc3)[nH]2)cc1", "remaining activity [%]": 104}
